Published values from different studies.
Parts stem from different laboratories: compare values within a part only.

Series 1 — observed: enzyme activity; mode: inhibitor; tested at: 20 µM; quantity: inhibition
Target: Replicase polyprotein 1ab, polymerase (rep, Severe acute respiratory syndrome coronavirus 2, UniProt P0DTD1)
SMILES = CC(C)c1cccc2c(-c3ccccc3)cc(-c3ccc(-c4ccc(C(=O)O)cc4)[nH]3)nc12; value = 5.65%
SMILES = Nc1nc2n[nH]nc2c(=O)[nH]1; value = 3.48%
SMILES = O=C(/C=C/c1ccc(O)c2c1[C@H](C(=O)O[C@H](Cc1ccc(O)c(O)c1)C(=O)O)[C@@H](c1ccc(O)c(O)c1)O2)O[C@H](Cc1ccc(O)c(O)c1)C(=O)O; value = 69.1%
SMILES = COc1cc(OC)c(C(=O)CCCN2CCCC2)c(OC)c1; value = -2.33%
SMILES = C[C@H]1CO[C@@H]2Cn3cc(C(=O)NCc4ccc(F)cc4F)c(=O)c(O)c3C(=O)N12; value = 2.66%
SMILES = CCC1=C(C)CN(C(=O)NCCc2ccc(S(=O)(=O)NC(=O)N[C@H]3CC[C@H](C)CC3)cc2)C1=O; value = -3.98%
SMILES = O=C(NC(Cc1cc(=O)[nH]c2ccccc12)C(=O)O)c1ccc(Cl)cc1 (stereo not shown); value = -5.79%
SMILES = CN1[C@@H]2CC(O)C[C@H]1[C@@H]1O[C@@H]12 (stereo partly shown); value = 2.71%
SMILES = Cc1cc(OCCN2CCOCC2)nn1-c1ccc2ccccc2c1; value = -2.02%
SMILES = CCCC(=O)O[C@]1(C(=O)COC(C)=O)CC[C@H]2[C@@H]3C[C@H](F)C4=CC(=O)C=C[C@]4(C)[C@@]3(F)[C@@H](O)C[C@@]21C; value = -4.91%
SMILES = CC[N+](CC)(CC)CCOc1cccc(OCC[N+](CC)(CC)CC)c1OCC[N+](CC)(CC)CC; value = 10.9%

Series 2 — organism: SARS-CoV-2; observed: cytopathic effect; cell line: Vero E6; tested at: 10 µM; quantity: inhibition
Structure (SMILES) = CC1=C(CC(=O)O)c2cc(F)ccc2/C1=C\c1ccc([S+](C)[O-])cc1 (stereo not shown); value = 4.2%
Structure (SMILES) = CNc1nc(Nc2cn(C(C)(C)C#N)nc2C)ncc1C(F)(F)F; value = -1.3%
Structure (SMILES) = Nc1ccc(O)c2ncccc12; value = -40.9%
Structure (SMILES) = CC(C)(C)NC(=O)N[C@H](C(=O)N1C[C@H]2[C@@H]([C@H]1C(=O)NC(CC1CCC1)C(=O)C(N)=O)C2(C)C)C(C)(C)C (stereo partly shown); value = 0.9%
Structure (SMILES) = c1ccc2sc(SNC3CCCCC3)nc2c1; value = -5.8%

Series 3 — cell line: HEK-293T; observed: pseudovirus infection; technique: FDA-approved drug library screen; organism: VSV pseudotyped with SARS-CoV-2 spike; tested at: 10 µM; time: 16 h; relative to: vehicle-treated; quantity: GFP-positive cells
SMILES = Cc1cc(-c2ccc(/N=N/c3ccc4c(S(=O)(=O)O)cc(S(=O)(=O)O)c(N)c4c3O)c(C)c2)ccc1/N=N/c1ccc2c(S(=O)(=O)O)cc(S(=O)(=O)O)c(N)c2c1O; value = 95.9%
SMILES = CC#C[C@]1(O)CC[C@H]2[C@@H]3CCC4=CC(=O)CCC4=C3[C@@H](c3ccc(N(C)C)cc3)C[C@@]21C; value = 76.6%
SMILES = COc1ccc(OC)c(C(O)C(C)N)c1 (stereo not shown); value = 105%
SMILES = CCN(CC)C(=O)N1CCN(C)CC1; value = 88.9%

Series 4 — technique: protein-binding microarray; form: double-stranded DNA, one strand shown; sample: in vitro; tested at: 2200 nM top; notes: 60-bp whole probe; added: salmon DNA 0.4 mg/ml; relative to: random background probes; reading: higher = stronger binding; quantity: fitted relative affinity; shared flanks, not repeated: GCCTAGCAC … GTCTTGATTCGCTTGACGCTGCTG
Target: Interferon regulatory factor 7, full length, phosphomimetic (IRF7, Homo sapiens, UniProt Q92985, residues 1-503, S471D/S472D/S475D/S476D/S477D/S483D/S484D/S487D)
Sequence of UniProt Q92985 (whole entry, unmodified, looked up): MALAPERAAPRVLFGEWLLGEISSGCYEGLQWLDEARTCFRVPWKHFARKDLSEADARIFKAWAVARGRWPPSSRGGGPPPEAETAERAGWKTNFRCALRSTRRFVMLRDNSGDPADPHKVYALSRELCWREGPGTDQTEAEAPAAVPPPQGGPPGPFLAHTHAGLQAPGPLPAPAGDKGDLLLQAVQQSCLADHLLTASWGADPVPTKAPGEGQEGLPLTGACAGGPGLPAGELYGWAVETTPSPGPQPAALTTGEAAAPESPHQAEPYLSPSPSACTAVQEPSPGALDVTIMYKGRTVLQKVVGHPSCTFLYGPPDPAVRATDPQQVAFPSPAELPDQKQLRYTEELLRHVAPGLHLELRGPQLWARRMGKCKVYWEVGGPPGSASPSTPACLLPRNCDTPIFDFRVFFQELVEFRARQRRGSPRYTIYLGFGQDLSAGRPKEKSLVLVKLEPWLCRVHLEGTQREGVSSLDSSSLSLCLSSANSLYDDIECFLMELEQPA
Sequence = GACGGTACCCTTCTCCTGACGTGCTAG; value = 0.574 z-score
Sequence = GACGAACTAGGGACTGGAGACGTGCTA; value = -0.613 z-score
Sequence = GACGAACTGACTATCGAGACGTGCTAG; value = 0.0739 z-score
Sequence = TCATCTCTCTTAAATAGGACTGTGCTA; value = 0.632 z-score
Sequence = GACGAACTGGGGTATCGAGATGTGCTA; value = 0.239 z-score
Sequence = TTAGGACTGGGACTTGGTTAGTGCTAG; value = -0.504 z-score
Sequence = TTAAATATCAGACTGGATTAGTGCTAG; value = -0.61 z-score
Sequence = GACGGACTCGGGTATCGGGACGTGCTA; value = -0.301 z-score
